Experimental data of several laboratories.
Numbered parts are unrelated; each lists some results of a single study.
Sequence of UniProt P07333 (whole entry, looked up): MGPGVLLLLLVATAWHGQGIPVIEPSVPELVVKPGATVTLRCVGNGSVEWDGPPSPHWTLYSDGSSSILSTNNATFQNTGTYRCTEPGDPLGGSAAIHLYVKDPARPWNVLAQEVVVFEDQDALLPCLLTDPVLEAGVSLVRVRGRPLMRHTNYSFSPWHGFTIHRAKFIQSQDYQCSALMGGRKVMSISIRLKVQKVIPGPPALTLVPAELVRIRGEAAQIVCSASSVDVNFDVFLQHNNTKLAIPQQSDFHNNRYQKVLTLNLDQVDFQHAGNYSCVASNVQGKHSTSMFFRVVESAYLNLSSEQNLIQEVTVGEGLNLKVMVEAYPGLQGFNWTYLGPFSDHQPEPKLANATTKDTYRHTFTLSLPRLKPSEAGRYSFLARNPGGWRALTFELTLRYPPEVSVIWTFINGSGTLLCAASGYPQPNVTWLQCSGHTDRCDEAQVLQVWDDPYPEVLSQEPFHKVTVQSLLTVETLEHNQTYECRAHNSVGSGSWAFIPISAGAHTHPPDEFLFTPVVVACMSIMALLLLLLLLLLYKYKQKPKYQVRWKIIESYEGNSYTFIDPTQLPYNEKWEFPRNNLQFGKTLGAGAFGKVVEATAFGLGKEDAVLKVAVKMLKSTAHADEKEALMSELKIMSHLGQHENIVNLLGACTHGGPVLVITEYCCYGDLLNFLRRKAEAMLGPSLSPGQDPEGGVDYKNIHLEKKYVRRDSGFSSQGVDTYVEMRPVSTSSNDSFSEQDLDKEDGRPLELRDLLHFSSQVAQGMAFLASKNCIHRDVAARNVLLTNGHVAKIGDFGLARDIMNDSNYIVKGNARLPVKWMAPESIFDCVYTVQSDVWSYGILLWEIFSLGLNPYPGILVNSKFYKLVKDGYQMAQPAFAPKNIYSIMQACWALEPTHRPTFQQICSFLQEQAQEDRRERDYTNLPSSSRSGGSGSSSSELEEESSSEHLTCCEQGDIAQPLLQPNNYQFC
Sequence of UniProt P00519 (whole entry, looked up): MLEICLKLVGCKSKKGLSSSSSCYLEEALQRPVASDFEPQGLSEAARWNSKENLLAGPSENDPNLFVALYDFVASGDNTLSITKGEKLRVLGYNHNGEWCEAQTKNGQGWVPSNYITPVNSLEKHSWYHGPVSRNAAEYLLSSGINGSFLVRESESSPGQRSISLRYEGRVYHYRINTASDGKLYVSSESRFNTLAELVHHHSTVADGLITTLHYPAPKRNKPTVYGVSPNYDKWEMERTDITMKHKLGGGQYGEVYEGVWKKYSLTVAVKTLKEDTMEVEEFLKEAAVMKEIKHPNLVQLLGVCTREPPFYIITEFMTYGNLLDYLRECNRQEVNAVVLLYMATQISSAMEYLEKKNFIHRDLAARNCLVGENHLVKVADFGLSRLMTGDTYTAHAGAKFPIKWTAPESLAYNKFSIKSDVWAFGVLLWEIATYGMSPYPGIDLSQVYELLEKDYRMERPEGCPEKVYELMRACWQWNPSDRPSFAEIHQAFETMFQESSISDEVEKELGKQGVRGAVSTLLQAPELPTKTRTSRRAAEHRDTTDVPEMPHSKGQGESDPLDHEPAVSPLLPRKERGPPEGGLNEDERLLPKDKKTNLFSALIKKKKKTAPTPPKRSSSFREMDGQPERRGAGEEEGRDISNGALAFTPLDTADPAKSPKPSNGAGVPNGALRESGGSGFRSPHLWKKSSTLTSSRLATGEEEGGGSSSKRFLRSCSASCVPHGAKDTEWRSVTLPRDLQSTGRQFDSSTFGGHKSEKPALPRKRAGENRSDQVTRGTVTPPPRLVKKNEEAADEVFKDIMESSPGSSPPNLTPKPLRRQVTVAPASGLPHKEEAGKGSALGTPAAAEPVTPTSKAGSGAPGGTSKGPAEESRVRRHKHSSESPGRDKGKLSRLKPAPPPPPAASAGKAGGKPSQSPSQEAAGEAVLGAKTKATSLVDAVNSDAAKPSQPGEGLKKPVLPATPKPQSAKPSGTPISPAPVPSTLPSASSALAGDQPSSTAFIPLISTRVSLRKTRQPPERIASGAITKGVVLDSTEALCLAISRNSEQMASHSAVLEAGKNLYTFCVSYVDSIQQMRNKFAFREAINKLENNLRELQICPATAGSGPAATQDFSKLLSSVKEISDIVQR
Sequence of UniProt Q8N752 (whole entry, looked up): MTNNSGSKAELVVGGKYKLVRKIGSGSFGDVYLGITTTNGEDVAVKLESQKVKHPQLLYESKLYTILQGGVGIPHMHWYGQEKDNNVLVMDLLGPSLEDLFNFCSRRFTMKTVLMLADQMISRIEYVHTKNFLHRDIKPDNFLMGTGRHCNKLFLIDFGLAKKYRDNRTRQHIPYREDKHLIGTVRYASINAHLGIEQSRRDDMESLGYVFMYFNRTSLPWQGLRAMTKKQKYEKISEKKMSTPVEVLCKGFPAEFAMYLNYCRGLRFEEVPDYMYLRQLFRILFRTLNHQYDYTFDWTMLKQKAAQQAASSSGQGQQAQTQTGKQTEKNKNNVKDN
Sequence of UniProt Q9BVS4 (whole entry, looked up): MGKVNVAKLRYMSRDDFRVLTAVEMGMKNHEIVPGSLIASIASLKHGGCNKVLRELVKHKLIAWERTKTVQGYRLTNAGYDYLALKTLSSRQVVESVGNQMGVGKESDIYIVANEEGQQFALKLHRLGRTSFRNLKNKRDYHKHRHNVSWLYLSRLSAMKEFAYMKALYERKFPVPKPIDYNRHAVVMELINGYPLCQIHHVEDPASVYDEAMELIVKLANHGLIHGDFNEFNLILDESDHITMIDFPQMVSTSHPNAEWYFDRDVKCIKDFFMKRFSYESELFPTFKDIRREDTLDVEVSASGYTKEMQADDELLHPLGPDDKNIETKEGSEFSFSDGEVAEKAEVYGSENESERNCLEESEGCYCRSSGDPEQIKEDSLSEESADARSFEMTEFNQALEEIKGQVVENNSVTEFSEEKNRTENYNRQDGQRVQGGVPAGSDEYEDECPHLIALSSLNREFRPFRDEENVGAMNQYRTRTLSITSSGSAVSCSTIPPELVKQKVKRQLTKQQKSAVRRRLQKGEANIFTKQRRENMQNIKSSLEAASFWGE
Sequence of UniProt Q96BR1 (whole entry, looked up): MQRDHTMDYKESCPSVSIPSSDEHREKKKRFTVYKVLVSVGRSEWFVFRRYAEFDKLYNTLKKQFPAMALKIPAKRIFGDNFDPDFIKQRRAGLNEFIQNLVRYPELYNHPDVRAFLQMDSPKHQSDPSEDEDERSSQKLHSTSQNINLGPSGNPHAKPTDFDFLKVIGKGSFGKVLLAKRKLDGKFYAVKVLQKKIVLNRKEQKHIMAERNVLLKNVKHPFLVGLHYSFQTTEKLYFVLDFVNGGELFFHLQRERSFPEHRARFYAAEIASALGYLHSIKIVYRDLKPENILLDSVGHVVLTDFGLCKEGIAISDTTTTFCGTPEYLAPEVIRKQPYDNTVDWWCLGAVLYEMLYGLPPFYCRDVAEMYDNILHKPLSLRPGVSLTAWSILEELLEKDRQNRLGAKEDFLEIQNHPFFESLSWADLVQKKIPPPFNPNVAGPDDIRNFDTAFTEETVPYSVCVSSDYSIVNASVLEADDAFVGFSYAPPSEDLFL
Sequence of UniProt O15146 (whole entry, looked up): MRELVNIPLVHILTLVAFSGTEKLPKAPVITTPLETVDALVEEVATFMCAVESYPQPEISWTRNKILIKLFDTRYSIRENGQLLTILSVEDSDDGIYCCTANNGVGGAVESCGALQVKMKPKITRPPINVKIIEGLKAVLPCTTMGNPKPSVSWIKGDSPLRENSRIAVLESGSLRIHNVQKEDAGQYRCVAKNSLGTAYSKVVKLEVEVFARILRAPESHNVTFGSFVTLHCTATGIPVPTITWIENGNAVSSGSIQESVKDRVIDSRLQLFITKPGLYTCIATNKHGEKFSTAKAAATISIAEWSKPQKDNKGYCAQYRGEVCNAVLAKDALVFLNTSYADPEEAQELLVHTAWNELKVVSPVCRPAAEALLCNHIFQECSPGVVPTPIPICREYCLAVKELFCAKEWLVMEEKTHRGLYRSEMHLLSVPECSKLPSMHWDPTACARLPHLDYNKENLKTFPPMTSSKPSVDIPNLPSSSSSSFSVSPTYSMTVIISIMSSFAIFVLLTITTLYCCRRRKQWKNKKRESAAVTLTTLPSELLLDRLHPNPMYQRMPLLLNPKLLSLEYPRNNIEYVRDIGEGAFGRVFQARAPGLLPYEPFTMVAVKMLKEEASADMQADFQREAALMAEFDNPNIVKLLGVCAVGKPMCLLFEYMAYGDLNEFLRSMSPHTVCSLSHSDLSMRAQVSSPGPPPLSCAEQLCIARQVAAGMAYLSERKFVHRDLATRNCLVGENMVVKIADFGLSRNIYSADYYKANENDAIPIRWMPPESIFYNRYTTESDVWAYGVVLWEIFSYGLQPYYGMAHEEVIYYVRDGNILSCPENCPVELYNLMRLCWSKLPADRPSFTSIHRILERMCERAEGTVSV
Sequence of UniProt O00141 (whole entry, looked up): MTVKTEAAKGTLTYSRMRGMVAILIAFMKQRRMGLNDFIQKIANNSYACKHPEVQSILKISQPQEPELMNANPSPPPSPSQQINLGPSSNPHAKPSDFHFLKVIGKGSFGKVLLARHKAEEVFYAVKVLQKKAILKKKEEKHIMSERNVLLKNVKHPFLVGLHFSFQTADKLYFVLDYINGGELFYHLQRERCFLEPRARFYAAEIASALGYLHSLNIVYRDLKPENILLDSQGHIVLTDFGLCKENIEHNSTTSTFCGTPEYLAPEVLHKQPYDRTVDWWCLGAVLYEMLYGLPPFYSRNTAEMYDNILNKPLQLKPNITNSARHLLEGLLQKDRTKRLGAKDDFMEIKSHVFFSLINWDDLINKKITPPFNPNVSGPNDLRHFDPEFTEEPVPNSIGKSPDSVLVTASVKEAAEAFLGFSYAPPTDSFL

Block 1
Target: His6 tag
Method: AlphaScreen counter screen
Concentration: concentration not given
| SMILES | inhibition |
| --- | --- |
| CC1CCCCN1CCNc1ccc2nnc(-c3ccc(F)cc3)n2n1 (stereo not drawn) | 7.45% |
| C=CC(=O)Nc1cc2c(Nc3ccc(F)c(Cl)c3)ncnc2cc1OCCCN1CCOCC1 | -5.65% |
| Cc1cc2ncc(-c3ccccc3)nc2cc1C | -31.1% |
| O=C1C(Cl)=C(N2C(=O)CCC2=O)C(=O)c2ccccc21 | 8.75% |
| CCN(CC)C(=S)Nc1ccc2nc[nH]c(=O)c2c1 | -2.4% |
| O=C(O)CCCC(=O)NNC(=O)c1ccc(Cl)cc1 | -4.2% |
| Nc1ncnc2c1c(COc1cccc(Cl)c1)nn2C1CCOCC1 | 4.35% |
| CC(C)c1nn(-c2c(Cl)cccc2Cl)c2nc(Cc3ccc(OCCO)cc3)[nH]c(=O)c12 | 22% |
| CC(C)OC(=O)CNC(=O)c1cc2c(=O)n3ccccc3nc2n1C | 6.2% |

Block 2
Structure (SMILES): CN1CCN(C(=O)c2ccc(NC(=O)Nc3ccc(N(C)c4ccnc(Nc5ccc(CS(C)(=O)=O)cc5)n4)cc3)cc2)CC1
Concentration: 1 µM
| target | assay | setting | how to read | remaining binding |
| --- | --- | --- | --- | --- |
| CSF1R (Homo sapiens, UniProt P07333) | competitive binding scan | autoinhibited form | – | 8.8% |
| GSK3B (Homo sapiens, UniProt P49841) | competitive binding panel | – | reference: vehicle | 95% |
| SGK3 (Homo sapiens, UniProt Q96BR1) | competitive binding panel | – | reference: vehicle | 79% |
| EPHB1 (Homo sapiens, UniProt P54762) | competitive binding panel | – | reference: vehicle | 87% |
| MYLK2 (Homo sapiens, UniProt Q9H1R3) | competitive binding panel | – | reference: vehicle | 36% |
| PAK6 (Homo sapiens, UniProt Q9NQU5) | competitive binding panel | – | reference: vehicle | 92% |
| TBK1 (Homo sapiens, UniProt Q9UHD2) | competitive binding panel | – | reference: vehicle | 55% |
| RIOK2 (Homo sapiens, UniProt Q9BVS4) | competitive binding panel | – | reference: vehicle | 21% |
| EGFR (Homo sapiens, UniProt P00533) | competitive binding panel | – | reference: vehicle | 100% |

Block 3
Cell line: HaCaT
Concentration: 100 µM
Time: 36 h
| SMILES | viability |
| --- | --- |
| CC(=O)Nc1cccc(-n2c(=O)n(C3CC3)c(=O)c3c(Nc4ccc(I)cc4F)n(C)c(=O)c(C)c32)c1 | 74% |
| O=c1c(-c2ccc(O)cc2)coc2cc(O[C@@H]3O[C@H](CO)[C@@H](O)[C@H](O)[C@H]3O)ccc12 | 92.7% |
| CCc1cccc2c3c([nH]c12)C(CC)(CC(=O)O)OCC3 (stereo not drawn) | 92.5% |
| COc1cc(C(=O)N2CCOCC2)cc(OC)c1OC | 84% |
| CNC1(C)C2CCC(C2)C1(C)C (stereo not drawn) | 87% |
| Oc1cc(O)cc(/C=C/c2ccc(O)c(O)c2)c1 | 97.8% |
| COc1cc(C[C@H]2C(=O)OC[C@@H]2Cc2ccc(OC)c(OC)c2)ccc1O | 75.7% |
| C[C@H]1[C@H](NC(=O)/C(=N\OC(C)(C)C(=O)O)c2csc(N)n2)C(=O)N1S(=O)(=O)O | 97.3% |

Block 4
SMILES: O=C(NCc1ncc(C(F)(F)F)cc1Cl)c1ccc2c(c1)C1(CCS(=O)(=O)CC1)[C@H](C1CC1)N2S(=O)(=O)c1ccc(F)cc1
Effect on: cell-free assay
Method: competition with immobilised ligand
Concentration: 1 µM
| target | remaining binding |
| --- | --- |
| ERN1 (Homo sapiens, UniProt O75460) | 78% |
| PIK3CA (Homo sapiens, UniProt P42336) | 100% |
| Tyrosine-protein kinase ABL1, non-phosphorylated (ABL1, Homo sapiens, UniProt P00519) | 92% |
| MAK (Homo sapiens, UniProt P20794) | 100% |
| MUSK (Homo sapiens, UniProt O15146) | 100% |
| CSNK1A1L (Homo sapiens, UniProt Q8N752) | 95% |
| DCLK2 (Homo sapiens, UniProt Q8N568) | 100% |
| SGK1 (Homo sapiens, UniProt O00141) | 79% |
| CSF1R (Homo sapiens, UniProt P07333) | 100% |
| EGFR (Homo sapiens, UniProt P00533, del747-750/T751S) | 100% |
| CDK5 (Homo sapiens, UniProt Q00535) | 0% |
| PIP5K1C (Homo sapiens, UniProt O60331) | 100% |
| HIPK2 (Homo sapiens, UniProt Q9H2X6) | 81% |

A few entries again (block 3):
| SMILES | viability |
| --- | --- |
| Oc1cc(O)cc(/C=C/c2ccc(O)c(O)c2)c1 | 97.8% |
| CCc1cccc2c3c([nH]c12)C(CC)(CC(=O)O)OCC3 (stereo not drawn) | 92.5% |
| C[C@H]1[C@H](NC(=O)/C(=N\OC(C)(C)C(=O)O)c2csc(N)n2)C(=O)N1S(=O)(=O)O | 97.3% |
| CC(=O)Nc1cccc(-n2c(=O)n(C3CC3)c(=O)c3c(Nc4ccc(I)cc4F)n(C)c(=O)c(C)c32)c1 | 74% |
